Published values pooled from the literature.
Compare with care: the assays were run in different laboratories. Several values in a cell are separate wells, animals, samples, runs or records. Numbers after ± are the reported error.

SMILES	assay	test system	conditions	how to read	measurement	result
CC(C)CC(=O)Nc1ccc(C2CCCCC2)cc1	liver microsome stability	mouse liver microsomes	1 µM	–	hepatic clearance	5.16 L/h/kg
CN(Cc1cc(C2CC2)on1)C(=O)c1cccc(-c2ccc(F)cc2)c1	metabolic stability	human, liver microsomes	2 µM, 0 h, pH 7.5	–	compound remaining	100%
COc1ccc2c(c1)CN(C(=O)CCN1CCC(Cc3ccccc3)CC1)CCS2	–	human plasma	750 ng/mL	–	fu	0.024
CCC(CC)n1c(Cc2cccs2)nc2cc(C(=O)N[C@@H](CC(=O)O)c3ccccc3)ccc21	–	male Sprague-Dawley rat, plasma	intravenous, 1 mg/kg	–	MRT(0-t)	0.86 h
C=CC(=O)Nc1cc(Nc2nccc(-c3cn(C)c4ccccc34)n2)c(OC)cc1N(C)CCNC	storage stability	human dried blood spot samples	30 d, -80 °C, MQC level	relative to: nominal concentration	percentage recovery	49%
CCN(CC)c1ccc2c(c1)O[B-]1(c3c(C)cccc3C)OC(=O)C(c3ccccc3)=N[N+]1=C2 (centres unmarked)	–	toluene	–	–	fluorescence emission maximum	511 nm
O=C([O-])CN1CCN(CC(=O)[O-])CCN(C(CO)C(O)CO)CCN(CC(=O)[O-])CC1.[Dy+3] (centres unmarked)	ICP-MS	cynomolgus monkey	dose not given, 3 d, mass balance group	relative to: dose	cumulative urinary excretion	98.5%
CN(C)C(=O)CNC(=O)c1ccc(C2CCCCC2)cc1	hepatocyte stability	cryopreserved mouse hepatocytes	1 µM	–	hepatic clearance	4.8 L/h/kg
Cc1nc(N)nc2c1C(=O)N[C@@H](c1ccc(F)cc1-c1cccc(O[11CH3])n1)C2	ex vivo biodistribution	mice, U87 subcutaneous xenograft, kidneys	60 min post-injection, baseline, vehicle pre-treatment	–	tracer uptake	3 ± 0.5 %ID
CCCN(C)c1cc(C(F)(F)F)nc(SCCC(=O)NCc2ccco2)n1	–	Wistar rat	intraperitoneal, 25 mg/kg, 2 h post-dose, isoflurane anaesthesia	relative to: vehicle control	heart rate	no effect
N#Cc1cccc(-c2ccc([C@H]3[C@@H](F)[C@@H](F)C[C@@H](F)[C@H]3F)cc2)c1	liver microsome stability	cynomolgus liver microsomes	1 µM	–	hepatic clearance	0.294 L/h/kg
COc1cccc(OC)c1-c1cc(C(=O)NC2(C(=O)O)C3CC4CC(C3)CC2C4)nn1-c1ccc(C(=O)NCCNC(=O)[C@H](CCCCNC(=O)[C@H](CC(C)C)NC(=O)C2OC2C(=O)O)NC(=O)CN2CCN(CC(=O)[O-])CCN(CC(=O)[O-])CCN(CC(=O)[O-])CC2)cc1C(C)C.[177Lu+3] (mixture of isomers)	–	mouse, HT-29 xenograft	4 h post injection, biodistribution	relative to: tumour over blood uptake	tumour-to-blood ratio	3.72
O=C(Nc1cnccc1-c1ccc([18F])cc1)c1ccnc(NC(=O)C2CC2)c1	ex vivo gamma counting	GSK-3β transgenic mice, early-stage, caudate nucleus	intravenous, 120 min, added: tariquidar 15 mg/kg iv	–	mean SUV	0.24
COc1cccc(OC)c1-c1cc(C(=O)NC2(C(=O)O)C3CC4CC(C3)CC2C4)nn1-c1ccc(C(=O)N(C)CCOCCN(C)C(=O)[C@H](CCCCNC(=O)[C@H](CC(C)C)NC(=O)C2OC2C(=O)O)NC(=O)CN2CCN(CC(=O)[O-])CCN(CC(=O)[O-])CCN(CC(=O)[O-])CC2)cc1C(C)C.[177Lu+3] (mixture of isomers)	–	mouse, HT-29 xenograft	72 h post injection, biodistribution	relative to: tumour over blood uptake	tumour-to-blood ratio	3.64
O=C(CN1CN(c2ccccc2)C2(CCN(C(=O)c3ccc4[nH]ncc4c3)CC2)C1=O)N(CCO)CC(F)(F)F	–	mouse liver microsomes	–	–	CLint	220 µL/min/mg protein
CC(=O)N([O-])CCCCCNC(=O)CCC(=O)N([O-])CCCCCNC(=O)CCC(=O)N([O-])CCCCCN.[89Zr+4]	radio-TLC	aqueous buffer	1 d, pH 7.2, 37 °C, 89Zr-labelled complex, added: FeCl3 10-fold excess	–	intact complex	92.2 ± 1.5%
C=Cc1ccc([B-]23OC(=O)C(c4ccccc4)=N[N+]2=Cc2ccc(N(CC)CC)cc2O3)cc1 (centres unmarked)	–	toluene	–	–	fluorescence emission maximum	508 nm
C=C[C@]1(C)C[C@@H](OC(=O)CSc2ccc(NC(=O)c3ccco3)cc2)[C@]2(C)[C@H](C)CC[C@]3(CCC(=O)[C@H]32)[C@@H](C)[C@@H]1O	–	M. gallisepticum-infected chickens, plasma	intramuscular, 40 mg/kg single dose	–	AUC(0-24 h)	10.2 µg·h/mL and 10.1 µg·h/mL
O=C(Nc1ccc(C2CCCCC2)cc1)C1CC1	hepatocyte stability	cryopreserved rat hepatocytes	1 µM	–	hepatic clearance	2.88 L/h/kg

SMILES	assay	test system	conditions	how to read	measurement	result
CCn1nc(Cl)c2c1-c1cnc(N)c(c1)O[C@H](C)c1cc(F)ccc1-c1nn(C)cc1C2	–	Balb/c nude mouse, female, plasma	0.5 mg/kg twice daily for 5 days, 1 h	–	free plasma concentration	6.24 nM
CC(C)(O)Cn1nc(-c2ccccc2)c2c(Cl)c(-c3ccccc3)nnc21	–	mouse juvenile P20, plasma	intraperitoneal, 100 mg/kg	–	AUC	19.8 µM·h
C=CC(=O)Nc1cc(Nc2nccc(-c3c[nH]c4ccccc34)n2)c(OC)cc1N(C)CCN(C)C	storage stability	human dried blood spot samples	30 d, -80 °C, LQC level	relative to: nominal concentration	percentage recovery	43.4%
CC(C)C[C@@H](NC(=O)[C@H](NC(=O)[C@H]1CCCN1)[C@H](C)O)C(=O)N[C@H](Cc1c[nH]cn1)C(=O)N[C@@H](C(=O)N[C@H](Cc1c[nH]cn1)C(=O)N[C@H](CC(N)=O)C(=O)N[C@H](CCCNC(=N)N)C(=O)N[C@H](CCCNC(=N)N)C(=O)N[C@H](CCCNC(=N)N)C(=O)N[C@H](CCCNC(=N)N)C(=O)N[C@H](CCCNC(=N)N)C(N)=O)[C@H](C)O	–	Beagle dog, blood	oral, 30 mg/kg daily, 3 months	–	cholesterol	5.4 ± 1.2 mmol/L
COC(=O)[C@@]1(C(C)C)C=C(C(=O)Nc2cccc(C(=O)Nc3ccc(Nc4nccc(-c5cccnc5)n4)c(C)c3)c2)C(=O)CC1	–	rat, plasma	1 µM, 5 min	–	compound remaining	97.6% and 101%
COc1cccc(OC)c1-c1cc(C(=O)NC2(C(=O)O)C3CC4CC(C3)CC2C4)nn1-c1ccc(C(=O)N(C)CCCN(C)C(=O)[C@H](CCCCNC(=O)[C@H](CC(C)C)NC(=O)C2OC2C(=O)O)NC(=O)CN2CCN(CC(=O)[O-])CCN(CC(=O)[O-])CCN(CC(=O)[O-])CC2)cc1C(C)C.[177Lu+3] (mixture of isomers)	–	mouse, HT-29 xenograft, spleen	168 h post injection	–	tissue uptake	0.43 %ID/g
COc1ccc(CN2CCC(F)(F)C(COc3ccc(F)c(F)c3)C2)cc1F (centres unmarked)	equilibrium dialysis	human plasma	–	–	fu	< 0.0003
COc1cccc(OC)c1-c1cc(C(=O)NC2(C(=O)O)C3CC4CC(C3)CC2C4)nn1-c1ccc(C(=O)N(C)CCOCCOCCN(C)C(=O)[C@H](CCCCNC(=O)[C@H](CC(C)C)NC(=O)C2OC2C(=O)O)NC(=O)CN2CCN(CC(=O)[O-])CCN(CC(=O)[O-])CCN(CC(=O)[O-])CC2)cc1C(C)C.[177Lu+3] (mixture of isomers)	–	mouse, HT-29 xenograft	4 h post injection, biodistribution	relative to: tumour over kidney uptake	tumour-to-kidney ratio	0.39
O=C(c1ccc(-c2ccccc2)cc1)N1CCCCC1	metabolic stability	human, liver microsomes	2 µM, 15 min, pH 7.4	–	compound remaining	97%
C=C1C[C@]2(C(=O)OC)C=C(C(=O)Nc3cccc(C(=O)Nc4ccc(Nc5nccc(-c6cccnc6)n5)c(C)c4)c3)C(=O)[C@H]1C2	–	Wistar rat, male, plasma	10 µM, 120 min	–	compound remaining	0.79% and 0.58%
C/C(N)=N/C(=N\S(=O)(=O)c1ccc(C(F)(F)F)cc1)N1C[C@H](c2ccccc2)C(c2ccc(Cl)cc2)=N1	–	simulated gastric fluid	1 µM, pH 1.2, 37 °C	–	t1/2	> 2 h
COc1ccc(-c2ccc(C3CCCCC3)cc2)cc1OC	hepatocyte stability	cryopreserved mouse hepatocytes	1 µM	–	hepatic clearance	2.04 L/h/kg
C=C(NC(=O)c1csc(-c2nc3c(cc2O)-c2nc(cs2)C(=O)NC(C(C)O)C(=O)NC(=C(C)OC)c2nc(cs2)C(=O)NC2c4nc(cs4)C(=O)NC(COC(=O)c4c5c6c(cccc6n4O)COC(=O)C(OC4CC(C)(O)C(N(C)C)C(C)O4)C2OC5)c2nc-3cs2)n1)C(N)=O (centres unmarked)	–	ICR mice, Streptococcus pneumoniae ATCC 49169 infected, immunocompromised, blood	intravenous, 16 mg/kg/day once daily	–	MRT(0-t)	4.56 h
O=C(c1ccc(C2CCCCC2)cc1)N1CCC(F)CC1	hepatocyte stability	cryopreserved mouse hepatocytes	1 µM	–	hepatic clearance	4.68 L/h/kg
O=C(Nc1cnccc1-c1ccc([18F])nc1)c1ccnc(NC(=O)C2CC2)c1	–	FVB/NJ mice (both sexes), small intestine	intravenous, dose not given, 120 min, added: tariquidar 15 mg/kg i.v. pre-dose	–	SUV	2.1
O=C(NCc1cccc(Cl)c1)c1ccc([C@H]2[C@@H](F)[C@@H](F)C[C@@H](F)[C@H]2F)cc1	liver microsome stability	rat liver microsomes	1 µM	–	hepatic clearance	1.26 L/h/kg
CC[C@H](C)[C@@H]1NC(=O)[C@H](Cc2ccc(O)cc2)NC(=O)CCCSC[C@@H](C(=O)N(CC(=O)N[C@@H](CC(C)C)C(=O)NCC(N)=O)Cc2ccc(F)cc2)NC(=O)[C@H](CC(N)=O)NC(=O)[C@H](CCC(N)=O)NC1=O	–	human	intranasal, 100 µg single dose	–	AE leading to discontinuation	0%
O=C(Nc1ccc([C@H]2[C@@H](F)[C@@H](F)C[C@@H](F)[C@H]2F)cc1)C1CC1(F)F (some centres unmarked)	hepatocyte stability	cryopreserved rat hepatocytes	1 µM	–	hepatic clearance	1.2 L/h/kg
c1ccc2cc3c(ccc4ccccc43)cc2c1	–	developing zebrafish, liver	–	–	hepatic clearance	346 L/h/kg
